Measurements gathered from unrelated publications.
Numbered parts are unrelated; each lists some results of a single study.
Sequence of UniProt P54646 (whole entry, looked up): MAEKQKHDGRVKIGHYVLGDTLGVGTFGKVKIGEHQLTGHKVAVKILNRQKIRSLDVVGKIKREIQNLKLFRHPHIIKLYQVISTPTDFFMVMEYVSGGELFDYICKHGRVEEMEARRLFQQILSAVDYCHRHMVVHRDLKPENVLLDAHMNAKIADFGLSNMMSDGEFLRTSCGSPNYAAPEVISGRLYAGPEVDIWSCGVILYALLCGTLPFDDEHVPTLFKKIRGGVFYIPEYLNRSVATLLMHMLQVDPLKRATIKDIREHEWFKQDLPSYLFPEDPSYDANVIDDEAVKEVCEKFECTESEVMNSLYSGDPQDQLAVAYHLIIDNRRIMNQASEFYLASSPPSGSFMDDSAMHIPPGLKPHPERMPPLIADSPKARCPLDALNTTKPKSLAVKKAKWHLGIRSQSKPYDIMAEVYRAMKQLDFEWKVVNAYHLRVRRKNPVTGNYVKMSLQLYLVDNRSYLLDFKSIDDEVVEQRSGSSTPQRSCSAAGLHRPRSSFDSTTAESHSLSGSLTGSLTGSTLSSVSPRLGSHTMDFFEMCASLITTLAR

Series 1 — method: aptamer microarray, sandwich; molecule type: DNA with 2'F-ANA; medium: in vitro; tested at: 200 nM; with: Cy3 exosite-II aptamer, 400 nM; reading: higher = stronger binding; measurement: mean fluorescence intensity; sequence: GGTTGGTGTGGTTGG
Target: Prothrombin, mature alpha-thrombin (F2, Homo sapiens, UniProt P00734)
Setting: whole 15-mer aptamer, many near background
2'F-ANA at 2 5 6 7 9 10 14 15: 43.9 a.u.
2'F-ANA at 1 3 6 7 8 9 11 13 14 15: 91.1 a.u.
2'F-ANA at 3 6 7 8 9 12 13 14: 541 a.u.
2'F-ANA at 1 2 5 7 8 9 11 14: 45.6 a.u.
2'F-ANA at 1 5 8 11 12 14 15: 49.7 a.u.
2'F-ANA at 1 2 4 6 10 11 13 15: 48.2 a.u.
2'F-ANA at 3 4 5 6 9 10 11 12 13 14: 51.2 a.u.
2'F-ANA at 1 2 3 4 8 11 14 15: 81 a.u.

Series 2 — method: protein binding microarray; molecule type: double-stranded DNA, one strand shown; medium: in vitro; tested at: not given; baseline: not given; reading: higher = stronger binding; measurement: E-score
Target: Histone acetyltransferase KAT6A, winged helix 1, GST fusion (KAT6A, Homo sapiens, UniProt Q92794, residues 1-85)
Setting: 8-mer, flanks averaged, mean of 2 arrays, mostly near background
Construct (chain): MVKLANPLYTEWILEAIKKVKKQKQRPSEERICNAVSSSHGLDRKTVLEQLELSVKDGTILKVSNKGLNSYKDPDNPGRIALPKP
TAGACCCA: -0.26
CGTCCGAC: 0.341
CCCGCTGC: 0.298
ACTGATGG: -0.0504
ACGGGGCA: 0.286
ATCGCACC: 0.0549
CGAGATAC: 0.0092
ACCCTACG: 0.0444

Series 3 — method: RNA Bind-n-Seq; molecule type: RNA; medium: in vitro; tested at: not given; baseline: input RNA pool; reading: higher = stronger binding; measurement: bound/input enrichment
Target: RING finger protein unkempt homolog, zinc fingers 1-6, GST-SBP tag (UNK, Homo sapiens, UniProt Q9C0B0, residues 30-357)
Setting: RNA with constant flanks, human-mouse chimeric sites, ends assumed
All sequences stand within: GGGAGUUCUACAGUCCGACGAUC … CAACAGAGGAUUGAGCAUCA
Residues (chain): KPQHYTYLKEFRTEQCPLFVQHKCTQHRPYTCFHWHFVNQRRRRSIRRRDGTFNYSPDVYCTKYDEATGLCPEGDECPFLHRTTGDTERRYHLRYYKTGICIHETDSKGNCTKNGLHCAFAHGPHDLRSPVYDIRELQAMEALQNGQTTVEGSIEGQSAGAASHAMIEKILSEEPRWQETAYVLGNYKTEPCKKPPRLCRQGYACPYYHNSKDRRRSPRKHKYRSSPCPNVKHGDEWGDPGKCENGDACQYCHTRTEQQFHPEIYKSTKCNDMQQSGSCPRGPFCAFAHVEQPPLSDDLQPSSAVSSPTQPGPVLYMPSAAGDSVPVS
AGAGAAAUGAGAAAGAAUCUUACACAAGAUGAGAUGCAAAGAAUGUCUACUAGAGUCCUUUUGGCGACUCUUUCCAUUCCUAUUACUCCUGAGCGAACGGAUAUUGCUCGACUUUUGGAU: 0.0963 ratio
AAAGAGAAAGCUAAAACACUAAUAGAGAAGAGGAUUGGGCAAAGAGAUUUCAUAGAGAAACUAGGAUUUAUUAGCAAACAUGAGUUAUAUUCCAGAGCGUCUCAGAAACCCCAGCCAAAC: 3.05 ratio
AAUUUCCUGUCAUACUUUGUAGCAAGACACAUCAGACUUACAGAGCACCUGGCCACAUUCUAGUUUUGUGUUAUUUCUCAGCUAUGGAUAUGAUCAAAUGAGAACACUGCUUAACUAAUG: 0.196 ratio
AUCAAAUACUUUGGGGACAUCAUUAGUGUGGGACAGAGACUGUUGCAAGGAGCUCGGAUCUUAGGGAUUCCUGUUAUCAUAACGGAACAAUACCCUAAAGGACUUGGCAGCACCGUUCAA: 0.169 ratio
CUGUGUGUGCUGAAUAAAUGGCUUGUAAAGAAGUUUUUCCAAGCUGUACCCAUGUACGUUAUUAUAGUUGCUGCAAAAUGUUCUUCCUGAUAUUGAUGUUUGUUUACAACUGAAGGUCUC: 0.233 ratio
GAAACAUUUAAAUUUAAAGAAGCUGUUGUUCUAGGAAGCACGGACUUUCUAGAAGAUGAUAUAGAGAAAAUUGUAGAAGAACUGGGGAAAGAGUAUAAGGGCAACGCUUAUCAUUUAAUG: 1.93 ratio
CCACCAGGAUCCCAGAAACAUGACCCUUGCUGCCUACAAAGAGAAGAUGAAGGAGCUCCCGCUGGUGUCCUUGUUCUGCUCUUGCUUCCUGGCCGAUCCCCUGAAUAAGUCGUCCUACAA: 0.157 ratio
UACUGCUGCUUUCAACUUAAAUCACUGAGGCAUCUCUACUGUUCUGUGAGCAUCAGGACUGUAGCGCUGUGUCACCACAGAUGAGAACAGAAGCAGCCUUUCUGUGGAGGGUGGGAAUGA: 0.157 ratio

Mixed results
CCCOc1ccc([C@@H]2[C@@H](C(=O)O)[C@H](c3ccc4c(c3)OCO4)CN2CC(=O)Nc2c(CC)cccc2CC)cc1 — remaining binding (5'-AMP-activated protein kinase catalytic subunit alpha-2 (PRKAA2, Homo sapiens, UniProt P54646); cell-free assay, competition with immobilised ligand; 1 µM): 95%

A few entries again (series 3):
CCACCAGGAUCCCAGAAACAUGACCCUUGCUGCCUACAAAGAGAAGAUGAAGGAGCUCCCGCUGGUGUCCUUGUUCUGCUCUUGCUUCCUGGCCGAUCCCCUGAAUAAGUCGUCCUACAA: 0.157 ratio
UACUGCUGCUUUCAACUUAAAUCACUGAGGCAUCUCUACUGUUCUGUGAGCAUCAGGACUGUAGCGCUGUGUCACCACAGAUGAGAACAGAAGCAGCCUUUCUGUGGAGGGUGGGAAUGA: 0.157 ratio
